# Results from different studies.
# Lines come from different studies, so protocols differ.
# Partner: itself
# B1: SOAT1 (Homo sapiens, UniProt P35610); sequence looked up; chain MVGEEKMSLRNRLSKSRENPEEDEDQRNPAKESLETPSNGRIDIKQLIAKKIKLTAEAEELKPFFMKEVGSHFDDFVTNLIEKSASLDNGGCALTTFSVLEGEKNNHRAKDLRAPPEQGKIFIARRSLLDELLEVDHIRTIYHMFIALLILFILSTLVVDYIDEGRLVLEFSLLSYAFGKFPTVVWTWWIMFLSTFSVPYFLFQHWATGYSKSSHPLIRSLFHGFLFMIFQIGVLGFGPTYVVLAYTLPPASRFIIIFEQIRFVMKAHSFVRENVPRVLNSAKEKSSTVPIPTVNQYLYFLFAPTLIYRDSYPRNPTVRWGYVAMKFAQVFGCFFYVYYIFERLCAPLFRNIKQEPFSARVLVLCVFNSILPGVLILFLTFFAFLHCWLNAFAEMLRFGDRMFYKDWWNSTSYSNYYRTWNVVVHDWLYYYAYKDFLWFFSKRFKSAAMLAVFAVSAVVHEYALAVCLSFFYPVLFVLFMFFGMAFNFIVNDSRKKPIWNVLMWTSLFLGNGVLLCFYSQEWYARQHCPLKNPTFLDYVRPRSWTCRYVF
# B2: ADAR1 127-end 127-1226 R892H (human, UniProt P55265); sequence looked up; chain SSHFQELSIYQDQEQRILKFLEELGEGKATTAHDLSGKLGTPKKEINRVLYSLAKKGKLQKEAGTPPLWKIAVSTQAWNQHSGVVRPDGHSQGAPNSDPSLEPEDRNSTSVSEDLLEPFIAVSAQAWNQHSGVVRPDSHSQGSPNSDPGLEPEDSNSTSALEDPLEFLDMAEIKEKICDYLFNVSDSSALNLAKNIGLTKARDINAVLIDMERQGDVYRQGTTPPIWHLTDKKRERMQIKRNTNSVPETAPAAIPETKRNAEFLTCNIPTSNASNNMVTTEKVENGQEPVIKLENRQEARPEPARLKPPVHYNGPSKAGYVDFENGQWATDDIPDDLNSIRAAPGEFRAIMEMPSFYSHGLPRCSPYKKLTECQLKNPISGLLEYAQFASQTCEFNMIEQSGPPHEPRFKFQVVINGREFPPAEAGSKKVAKQDAAMKAMTILLEEAKAKDSGKSEESSHYSTEKESEKTAESQTPTPSATSFFSGKSPVTTLLECMHKLGNSCEFRLLSKEGPAHEPKFQYCVAVGAQTFPSVSAPSKKVAKQMAAEEAMKALHGEATNSMASDNQPEGMISESLDNLESMMPNKVRKIGELVRYLNTNPVGGLLEYARSHGFAAEFKLVDQSGPPHEPKFVYQAKVGGRWFPAVCAHSKKQGKQEAADAALRVLIGENEKAERMGFTEVTPVTGASLRRTMLLLSRSPEAQPKTLPLTGSTFHDQIAMLSHRCFNTLTNSFQPSLLGRKILAAIIMKKDSEDMGVVVSLGTGNHCVKGDSLSLKGETVNDCHAEIISRRGFIRFLYSELMKYNSQTAKDSIFEPAKGGEKLQIKKTVSFHLYISTAPCGDGALFDKSCSDRAMESTESRHYPVFENPKQGKLRTKVENGEGTIPVESSDIVPTWDGIRLGERLRTMSCSDKILRWNVLGLQGALLTHFLQPIYLKSVTLGYLFSQGHLTRAICCRVTRDGSAFEDGLRHPFIVNHPKVGRVSIYDSKRQSGKTKETSVNWCLADGYDLEILDGTRGTVDGPRNELSRVSKKNIFLLFKKLCSFRYRRDLLRLSYGEAKKAARDYETAKNYFKKGLKDMGYGNWISKPQEEKNFYLCPV
# B3: trfB R48A (Escherichia coli, UniProt P03052); sequence looked up; chain MKKRLTESQFQEAIQGLEVGQQTIEIARGVLVDGKPQATFATSLGLTAGAVSQAVHRVWAAFEDKNLPEGYARVTAVLPEHQAYIVRKWEADAKKKQETKR
# B4: CEBPB 257-336 (Homo sapiens, UniProt P17676); sequence looked up; chain SQVKSKAKKTVDKHSDEYKIRRERNNIAVRKSRDKAKMRNLETQHKVLELTAENERLQKKVEQLSRELSTLRNLFKQLPE
# B5: cfbA 1-143 S11F (Methanocaldococcus jannaschii, UniProt Q58380); chain MEALVLVGHGFRLPYSKELLVKLAEKVKERNLFPIVEIGLMEFSEPTIPQAVKKAIEQGAKRIIVVPVFLAHGIHTTRDIPRLLGLIEDNHEHHHEHSHHHHHHHHHEHEKLEIPEDVEIIYREPIGADDRIVDIIIDRAFGR
# B6: CAB1 1-367 (Saccharomyces cerevisiae, UniProt Q04430); chain MPRITQEISYNCDYGDNTFNLAIDIGGTLAKVVFSPIHSNRLMFYTIETEKIDKFMELLHSIIKEHNNGCYRMTHIIATGGGAFKFYDLLYENFPQIKGISRFEEMEGLIHGLDFFIHEIPDEVFTYNDQDGERIIPTSSGTMDSKAIYPYLLVNIGSGVSILKVTEPNNFSRVGGSSLGGGTLWGLLSLITGAQTYDQMLDWAQEGDNSSVDMLVGDIYGTDYNKIGLKSSAIASSFGKVFQNRMTSNKSLENNENKLYSSHESIEKNNGQMFKNPDICKSLLFAISNNIGQIAYLQAKINNIQNIYFGGSYTRGHLTTMNTLSYAINFWSQGSKQAFFLKHEGYLGAMGAFLSASRHSSTKKTST
# B7: per 229-575 (Drosophila melanogaster, UniProt P07663); sequence looked up; chain GQRGERVKEDSFCCVISMHDGIVLYTTPSITDVLGYPRDMWLGRSFIDFVHLKDRATFASQITTGIPIAESRGSVPKDAKSTFCVMLRRYRGLKSGGFGVIGRPVSYEPFRLGLTFREAPEEARPDNYMVSNGTNMLLVICATPIKSSYKVPDEILSQKSPKFAIRHTATGIISHVDSAAVSALGYLPQDLIGRSIMDFYHHEDLSVMKETYETVMKKGQTAGASFCSKPYRFLIQNGCYVLLETEWTSFVNPWSRKLEFVVGHHRVFQGPKQCNVFEAAPTCKLKISEEAQSRNTRIKEDIVKRLAETVSRPSDTVKQEVSRRCQALASFMETLMDEVSRADLKLE
# B8: rga8 1-420 (Schizosaccharomyces pombe, UniProt Q09697); sequence looked up; chain MISSFSNGFWSKDYATGVKKLFDCLDNGVEENEQVKNLLKLYKEANEEFGEKLQEITKECLKGKKPENTEDGATSNKAFEGLRSEIANQGKQHIRIAKDLETLIIAPFSKMSIDHSQKLQTSQQVLTNQIKSYEKKYYTLKKTKSAYYNKCRNLEDYEEESKESNETTSEAITDLTTVSSPQQQSLLENDDDLIQLGFMEFRPEELKEVLAQVLQEIPLQDYRVPILGTYPNTCSGNIIVSWLQENLPVPTLVAAEAFGQDLIAQGFLRHMGVGGSFVNSTNFHYQWKDKAFQFAGLNSVDSLVENAKALPLVGEYLSDYISHRKLYSSETQSQRLKREVLDANKIYSESVVDLDKCRTLVEETIADHLQFLQKCETDRVLYYKDFFMDLSTIISNFLPSMKLLADQIVVYQEIIQPESD
# B9: Streptavidin N23A/S27D/S45A (Streptomyces avidinii, UniProt P22629); sequence looked up; chain DPSKDSKAQVSAAEAGITGTWYAQLGDTFIVTAGADGALTGTYEAAVGNAESRYVLTGRYDSAPATDGSGTALGWTVAWKNNYRNAHSATTWSGQYVGGAEARINTQWLLTSGTTEANAWKSTLVGHDTFTKVKPSAASIDAAKKAGVNNGNPLDAVQQ
# B10: Tomm70 S94A (Mus musculus, UniProt Q9CZW5); sequence looked up; chain MAASKPIEAAMAAAAAPGSGNGVGGGGGTAGPGSGAGTLPRWHVALAIGAPLLLGAGAMYLWSRRRRRREAGGRGDASGLKRNSERKTPEGRAAPALGSGHHDGSGDSLEMSSLDRAQAAKNKGNKYFKAGKYEQAIQCYTEAISLCPTEKNVDLSTFYQNRAAAFEQLQKWKEVAQDCTKAVELNPKYVKALFRRAKAHEKLDNKKECLEDVTAVCILEGFQNEQSMLLADKVLKLLGKENAKEKYKNREPLMPSPQFIKSYFSSFTDDIISQPMLKGEKSDEDKDKEGEALEVKENSGYLKAKQYMEEENYDKIISECSKEIDAQGKYMAEALLLRATFYLLIGSANAAKPDLDKVISLKEANVKLRANALIKRGTMCMQQQQPMLSTQDFNMAAEIDPMNSDVYHHRGQLKILLDLVEEAVADFDACIRLRPKFALAQAQKCFALYRQAYTANNSSQVQAAMKGFEEIIKKFPRCAEGYALYAQALTDQQQFGKADEMYDKCIDLEPDNATTYVHKGLLQLQWKQDLDKGLELISKAIEIDNKCDFAYETMGTIEVQRGNMEKAIDMFNKAINLAKSEMEMAHLYSLCDAAHAQTEVAKKYGLKPPTL
# B11: ITM2B 113-231 (Homo sapiens, UniProt Q9Y287); sequence looked up; chain QTIEENIKIFEEEEVEFISVPVPEFADSDPANIVHDFNKKLTAYLDLNLDKCYVIPLNTSIVMPPRNLLELLINIKAGTYLPQSYLIHEHMVITDRIENIDHLGFFIYRLCHDKETYKL
# B12: NECTIN2 32-350 (Homo sapiens, UniProt Q92692); sequence looked up; chain QDVRVQVLPEVRGQLGGTVELPCHLLPPVPGLYISLVTWQRPDAPANHQNVAAFHPKMGPSFPSPKPGSERLSFVSAKQSTGQDTEAELQDATLALHGLTVEDEGNYTCEFATFPKGSVRGMTWLRVIAKPKNQAEAQKVTFSQDPTTVALCISKEGRPPARISWLSSLDWEAKETQVSGTLAGTVTVTSRFTLVPSGRADGVTVTCKVEHESFEEPALIPVTLSVRYPPEVSISGYDDNWYLGRTDATLSCDVRSNPEPTGYDWSTTSGTFPTSAVAQGSQLVIHAVDSLFNTTFVCTVTNAVGMGRAEQVIFVRETP
# B13: protein (Penicillium verruculosum, UniProt A0A348FUE1); sequence looked up; chain MSPMDLQESAAALVRQLGERVEDRRGFGFMSPAIYDTAWVSMISKTIDDQKTWLFAECFQYILSHQLEDGGWAMYASEIDAILNTSASLLSLKRHLSNPYQITSITQEDLSARINRAQNALQKLLNEWNVDSTLHVGFEILVPALLRYLEDEGIAFAFSGRERLLEIEKQKLSKFKAQYLYLPIKVTALHSLEAFIGAIEFDKVSHHKVSGAFMASPSSTAAYMMHATQWDDECEDYLRHVIAHASGKGSGGVPSAFPSTIFESVWPLSTLLKVGYDLNSAPFIEKIRSYLHDAYIAEKGILGFTPFVGADADDTATTILVLNLLNQPVSVDAMLKEFEEEHHFKTYSQERNPSFSANCNVLLALLYSQEPSLYSAQIEKAIRFLYKQFTDSEMDVRDKWNLSPYYSWMLMTQAITRLTTLQKTSKLSTLRDDSISKGLISLLFRIASTVVKDQKPGGSWGTRASKEETAYAVLILTYAFYLDEVTESLRHDIKIAIENGCSFLSERTMQSDSEWLWVEKVTYKSEVLSEAYILAALKRAADLPDENAEAAPVINGISTNGFEHTDRINGKLKVNGTNGTNGSHETNGINGTHEIEQINGVNGTNGHSDVPHDTNGWVEEPTAINETNGHYVNGTNHETPLTNGISNGDSVSVHTDHSDSYYQRSDWTADEEQILLGPFDYLESLPGKNMRSQLIQSFNTWLKVPTESLDVIIKVISMLHTASLLIDDIQDQSILRRGQPVAHSIFGTAQAMNSGNYVYFLALREVQKLQNPKAISIYVDSLIDLHRGQGMELFWRDSLMCPTEEQYLDMVANKTGGLFCLAIQLMQAEATIQVDFIPLVRLLGIIFQICDDYLNLKSTAYTDNKGLCEDLTEGKFSFPIIHSIRSNPGNRQLINILKQKPREDDIKRYALSYMESTNSFEYTRGVVRKLKTEAIDTIQGLEKHGLEENIGIRKILARMSLEL
# B14: naaA 1-425 (Bradyrhizobium sp., UniProt D3WZ85); chain MAGSNDVAKVMKTLDGMREGLIQTAVELGSIEAPTGREGAAGDYVYEWMARNGFGPERVGVFDDRFNVVGRLRGTGGGASLSFNSHLDTIMAREDTARFADANDRIYHEAWHEEGRIYGYSVVNCKGPMACWLIAAKALKEAGAALKGDVVLTAVCGEIDCEPVDEFQGHDYLAEDIGARYAISHGAISDYALVAEATNFKPAWVEAGKVFLKVTVFAGPSRYTPYVPRPVAALDSPNAIVRMAKLVEALEEWADNYEKRYTREYGGGTVVPKVAIGAIRGGVPYKIYRFPELCSIYMDIRLNPDTNPLVVQREVEAVVSKLGLKAEVKPFLFRRGYEAQGIEPLQNALEVAHREVVGRPTERPGSPECSMWRDTNPYNELGIPSLTYGCGGGAGGGNTYFLVDDMLKAAKVYAMTAMDLCNRTP
# B15: Arginase 2-364 (Schistosoma mansoni, UniProt Q6WVP6); sequence looked up; chain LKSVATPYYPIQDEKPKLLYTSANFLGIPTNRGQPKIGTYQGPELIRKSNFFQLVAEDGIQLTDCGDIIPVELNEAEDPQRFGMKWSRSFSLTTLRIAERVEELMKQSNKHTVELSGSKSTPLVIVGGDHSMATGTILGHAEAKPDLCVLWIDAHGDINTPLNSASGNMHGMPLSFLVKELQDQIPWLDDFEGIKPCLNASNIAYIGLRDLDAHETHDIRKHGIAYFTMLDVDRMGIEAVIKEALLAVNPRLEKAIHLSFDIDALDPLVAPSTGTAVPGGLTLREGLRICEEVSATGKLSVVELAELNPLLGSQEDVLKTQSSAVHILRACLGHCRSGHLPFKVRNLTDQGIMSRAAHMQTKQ
# Sequence of UniProt Q8GUH7 (whole entry, looked up): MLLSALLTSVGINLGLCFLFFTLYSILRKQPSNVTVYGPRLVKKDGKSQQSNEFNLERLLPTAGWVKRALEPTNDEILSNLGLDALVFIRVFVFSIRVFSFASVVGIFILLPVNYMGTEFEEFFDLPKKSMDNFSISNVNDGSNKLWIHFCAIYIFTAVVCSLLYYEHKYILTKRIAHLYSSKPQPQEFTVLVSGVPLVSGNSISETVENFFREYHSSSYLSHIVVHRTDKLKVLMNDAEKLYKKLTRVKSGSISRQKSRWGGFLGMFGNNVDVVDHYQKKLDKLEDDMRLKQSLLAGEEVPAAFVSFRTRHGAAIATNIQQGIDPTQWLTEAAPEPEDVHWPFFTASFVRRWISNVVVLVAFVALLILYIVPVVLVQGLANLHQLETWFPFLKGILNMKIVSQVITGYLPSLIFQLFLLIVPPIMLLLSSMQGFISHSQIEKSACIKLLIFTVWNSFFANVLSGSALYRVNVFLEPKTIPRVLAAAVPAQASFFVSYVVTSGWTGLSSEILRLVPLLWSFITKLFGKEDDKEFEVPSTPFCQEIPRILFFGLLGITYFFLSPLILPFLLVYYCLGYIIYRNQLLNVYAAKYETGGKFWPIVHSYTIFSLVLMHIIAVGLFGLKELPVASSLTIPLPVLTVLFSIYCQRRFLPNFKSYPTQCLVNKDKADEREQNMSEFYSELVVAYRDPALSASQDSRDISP
Molecule,method,subunits per oligomer
B1 (SOAT1),native gel,> 4
B2 (ADAR1 127-end 127-1226 R892H),SEC,2
B3 (trfB R48A),SEC,2
B4 (CEBPB 257-336),X-ray crystallography,2
B5 (cfbA 1-143 S11F),SEC,2
B6 (CAB1 1-367),crystal structure,2
B7 (per 229-575),SEC,2
B8 (rga8 1-420),cross-linking,2
B9 (Streptavidin N23A/S27D/S45A),"co-refolding, SDS-PAGE",4 subunits
B10 (Tomm70 S94A),native PAGE,2
B11 (ITM2B 113-231),cryo-EM,12
B12 (NECTIN2 32-350),SEC-MALS,2
B13 (protein),native gel,4
B14 (naaA 1-425),SEC-SAXS,8
"OSCA2.3 (Arabidopsis thaliana, UniProt Q8GUH7)",cryo-EM structure,2
B15 (Arginase 2-364),SEC,6
